Assay results from different studies.
Numbered parts are unrelated; each lists some results of a single study. Changes are numbered by the printed parent chain.

Sample 1
Target: CCNB3, cyclin fold, Cln2 fusion (human)
Method: yeast growth competition, sequencing
Sample: yeast
Setting: weak parent motif
Reference: not given
Direction: higher = stronger binding
Parent: RB1 docking peptide (human); PKPLKKLRFDIEG; partner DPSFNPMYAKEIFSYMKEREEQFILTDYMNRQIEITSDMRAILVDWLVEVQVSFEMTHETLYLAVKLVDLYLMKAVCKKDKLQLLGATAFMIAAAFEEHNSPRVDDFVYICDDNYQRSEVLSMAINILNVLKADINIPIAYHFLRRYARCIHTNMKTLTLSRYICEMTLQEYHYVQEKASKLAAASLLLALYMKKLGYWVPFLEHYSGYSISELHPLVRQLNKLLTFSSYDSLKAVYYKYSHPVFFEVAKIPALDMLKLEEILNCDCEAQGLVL
| Change | normalised enrichment score |
| --- | --- |
| K6N | -0.117 |
| R8W | 0.357 |
| P3G | 0.426 |
| L7N | -0.106 |
| P3D | 0.432 |
| R8C | 0.1 |
| I11H | 0.324 |
| K6S | 0.124 |

Sample 2
Target: ABI1, truncated, D143A, DHFR fusion (Arabidopsis thaliana)
Method: DHFR PCA, deep sequencing
Sample: yeast
Setting: methotrexate growth selection, single substitutions
Added: (+)-ABA 0.0091 µM
Reference: wild-type fitted maximum
Direction: higher = stronger binding
Parent: PYL1, truncated, DHFR fusion (Arabidopsis thaliana); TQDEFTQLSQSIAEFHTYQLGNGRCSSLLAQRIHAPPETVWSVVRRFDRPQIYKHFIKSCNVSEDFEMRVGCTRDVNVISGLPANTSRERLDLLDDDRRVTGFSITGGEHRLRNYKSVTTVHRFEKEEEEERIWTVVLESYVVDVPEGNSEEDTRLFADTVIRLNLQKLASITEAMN; partner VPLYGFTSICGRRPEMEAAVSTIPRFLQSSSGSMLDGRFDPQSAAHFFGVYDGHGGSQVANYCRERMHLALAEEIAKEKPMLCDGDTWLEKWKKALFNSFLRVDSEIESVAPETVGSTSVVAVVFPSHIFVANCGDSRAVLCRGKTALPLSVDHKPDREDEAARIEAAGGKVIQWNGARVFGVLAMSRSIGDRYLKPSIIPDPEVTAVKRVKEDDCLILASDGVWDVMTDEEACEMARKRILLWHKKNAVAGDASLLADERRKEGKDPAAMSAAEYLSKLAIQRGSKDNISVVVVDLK
| Change | relative binding score |
| --- | --- |
| G71R | -3.49% |
| T17E | 2.41% |
| N61S | 49.3% |
| Y115S | -0.594% |
| S104Q | -8.68% |
| P146G | 11.7% |

Sample 3
Target: Interferon regulatory factor 5, full length, phosphomimetic (IRF5, Homo sapiens, UniProt Q13568-2, residues 1-514, K96S/S451D/S453D/S456D/S462D)
Method: protein-binding microarray
Molecule type: double-stranded DNA, one strand shown
Sample: in vitro
Concentration: 250 nM
Setting: 60-bp whole probe
Added: salmon DNA 0.4 mg/ml
Reference: random background probes
Direction: higher = stronger binding
All sequences stand within: GCCTAGCAC … GTCTTGATTCGCTTGACGCTGCTG
| Oligonucleotide | log fluorescence |
| --- | --- |
| GACGAACTGGCGTTTCGAGACGTGCTA | 0.692 z-score |
| TTAGGACTGATTATCCTTTAGTGCTAG | -0.0424 z-score |
| GACGATTTCAGTATCGAGATGTGCTAG | 4.28 z-score |
| TCATTAATGAAAATTCTAACTGTGCTA | 0.881 z-score |
| GACGGTTTCGGGTATCAGGACGTGCTA | 8.24 z-score |
| TTGGGTATCCTACTGCTTTAGTGCTAG | -0.0467 z-score |
| GACGATTCGAGTTTCGAGACGTGCTAG | 4.62 z-score |

Further values, each from its own experiment
| Molecule | target | assay | system | setting | how to read | endpoint | value |
| --- | --- | --- | --- | --- | --- | --- | --- |
| PhoQ, residues 284 288 289 292 302 303 SSTLLI | PhoP, residues 12 14 15 18 19 NNFVT (Escherichia coli, UniProt P23836) | Sort-seq, measured: YFP reporter | E. coli | PhoQ-PhoP variant library, added: 10 µM Mg2+ | reference: high Mg2+ state, higher = stronger signaling | fold induction | 4.25 |

Repeated from above (sample 1):
| Change | normalised enrichment score |
| --- | --- |
| R8W | 0.357 |
| I11H | 0.324 |
| P3D | 0.432 |
